# Published values collected from several papers.
# Every numbered part comes from another study and shows a few of its results, in no order.

# Study 1 — method: protein binding microarray; molecule type: double-stranded DNA, one strand shown; medium: in vitro; concentration: not given; baseline: not given; direction: higher = stronger binding
# Target: Histone acetyltransferase KAT6A, winged helix 2, GST fusion (KAT6A, Homo sapiens, UniProt Q92794, residues 85-181)
# Notes: 8-mer, flanks averaged, mean of 2 arrays, mostly near background
# Residues (chain): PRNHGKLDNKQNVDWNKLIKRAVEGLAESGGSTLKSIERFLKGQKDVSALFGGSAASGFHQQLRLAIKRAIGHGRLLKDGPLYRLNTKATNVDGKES
Oligonucleotide,E-score
CGGCGGAC,0.222
ATTCTCCG,-0.0693
GGAGCATA,0.0997
AAACAGTA,-0.0752
AGGTTTAC,-0.113
GTAAGCAA,0.126
GGGATCCA,-0.0996
GTAAGGCA,-0.22
CAGAGCCA,0.0121
CGGTATGC,0.0291
ACTGTCAC,-0.112
AGATACAG,-0.00734
ATATCCGA,0.0189
CAATTGAC,0.0341
TATCACCA,-0.0116
GAGTTCGC,0.179
CTCCGGGA,0.179
AACGCACA,0.116
CCGCCAGA,0.229
ACCATCTG,-0.0603
CGCGATTA,0.113

# Study 2 — method: aptamer microarray, sandwich; molecule type: DNA with 2'F-ANA; medium: in vitro; concentration: 200 nM; together with: Cy3 exosite-II aptamer, 400 nM; direction: higher = stronger binding; oligonucleotide: GGTTGGTGTGGTTGG
# Target: Prothrombin, mature alpha-thrombin (F2, Homo sapiens, UniProt P00734)
# Notes: whole 15-mer aptamer, many near background
Modification,mean fluorescence intensity [a.u.]
2'F-ANA at 1 4 5 7 9 10 13 14 15,48.8
2'F-ANA at 1 2 5 7 8 11 12 13 14,51.6
2'F-ANA at 1 6 7 8 12 15,454
2'F-ANA at 2 3 4 6 7 8 12 14,358
2'F-ANA at 1 6 8 11 12 14,68.3
2'F-ANA at 5 8 10 11 15,46.8
2'F-ANA at 1 3 4 7 8 11 13 14 15,91.4
2'F-ANA at 1 4 5 6 7 9 11 12 15,80.7
2'F-ANA at 3 7 8 13,1140
2'F-ANA at 5 8 12 13,121
2'F-ANA at 3 4 7 8 9 12 14 15,392
2'F-ANA at 1 3 4 9 13 15,116
2'F-ANA at 4 5 6 7 8 13 15,55.1
2'F-ANA at 2 4 5 7 8 10 13,91.3
2'F-ANA at 1 3 4 9 12 13 14 15,68.9
2'F-ANA at 1 2 3 4 5 7 9 10 11,53.6
2'F-ANA at 3 6 12 14 15,535
2'F-ANA at 3 5 8 9 12 13 15,179
2'F-ANA at 1 2 3 4 5 7 8 12 13 14 15,141
2'F-ANA at 4 6 7 9 13 15,130
2'F-ANA at 1 2 3 4 5 6 7 10 11 12 14,88.6
2'F-ANA at 2 4 5 6 7 8 9 10 11 14 15,47
2'F-ANA at 3 4 6 7 12 13 14,316
2'F-ANA at 3 4 7 10 11 15,261
2'F-ANA at 2 10 11 12 13 14 15,82.2

# Study 3 — method: EMSA with sequencing; molecule type: double-stranded DNA, one strand shown; medium: in vitro; concentration: 10 and 20 nM; baseline: negative control set to 0; direction: higher = stronger binding
# Target: Hepatocyte nuclear factor 3-alpha (Foxa1, Mus musculus, UniProt P35582, residues 1-468, full length assumed)
# Notes: whole designed probe, mean of two concentrations, ends assumed
# All sequences stand within: GTGAGCGGTGCCCATTGATGGGGAAC … TTTCACTGGGATCGTGGGGAC
# Target sequence (chain): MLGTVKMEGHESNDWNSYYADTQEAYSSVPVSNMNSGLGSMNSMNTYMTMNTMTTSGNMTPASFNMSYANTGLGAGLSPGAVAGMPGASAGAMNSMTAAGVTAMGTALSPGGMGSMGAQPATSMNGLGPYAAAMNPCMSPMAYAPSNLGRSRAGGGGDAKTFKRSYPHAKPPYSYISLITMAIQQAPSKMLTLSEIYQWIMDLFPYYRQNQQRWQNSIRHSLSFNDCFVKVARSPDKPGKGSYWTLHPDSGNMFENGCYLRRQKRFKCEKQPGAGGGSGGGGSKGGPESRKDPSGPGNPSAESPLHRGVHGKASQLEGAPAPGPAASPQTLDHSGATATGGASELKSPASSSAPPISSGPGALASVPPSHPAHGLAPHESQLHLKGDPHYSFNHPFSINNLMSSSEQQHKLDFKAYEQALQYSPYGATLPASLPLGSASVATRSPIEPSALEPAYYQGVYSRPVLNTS
Oligonucleotide,normalised bound fraction [ratio]
ATCCACGAACCTGGCCCTGTCTGGTAACCACAGTGAACCATCGCAAGATACAGCACTATGTGCCCAGTTGGGCTGGTAATGTCACACAAATGTGTCAACACTGGCACATCCTCAGGTAATGACTCACGTACTTGTTTTTGGAGAGGGACTAGACCTTCATCCTTGAGGTGAAGAAGATTTTCTCTCCAGGGTG,0.0486
TCGGCCAGCCTGGCTTCTGCGCCCCGCCAGGAGGTCGCGGAGCGGAGCGCGGCCAGGAAGTGATGACTCATTCACAGCTCCCCCCACGCTGTTTGTTTATTCATGTCACATTCTCTCCACACACTGGCTCTTCTTTCTTTCGGGAGGAGGGGAGAAAGGAGCGGGAGGGCGGGCGGGCAGGGGAGAGGCAGGC,0.342
ATCTTCCCCCTCTTCCTTGCCCCACCAGCTCACCTTCCCGGGTATATTGGAGATAGGAAATTAATATAAGCCGGCATTCGTTAACCCTCTTCTGGCGCAAACTGCCAAAGTAAACAGATCTAACATGGTCCTTTGGCGACGCCAGGCTCCGGGAGAGCAAAGCACCGTGTCAGGGCCATGATCCGGGGTGGCC,0.405
ATCTTCCCCCTCTTCCTTGCCCCACCAGCTCACCTTCCCGGGTTATTTGCAGATAGGAAAATAAATAAAGCCGGCATTCGTTAACCCTCTTCTGGCGCAAACTGCTGTTTGCTCTGGATCTAACATGGTCCTTTGGCGAGGCGTGGCTCCGGGAGAGCAAAGCACCGTGTCAGGGCCATGATCCGGGGTGGCC,0.342
TAATTCAGATTAAAAAACAAAACGCCCTCTTTTTGGACCTCCAAATTAATTCTGACCATGTCAGAGTGAGAACAAAAGATCCTAGTGTAATTCTTGTTTACATTTTGGACCAACACGCGGTTTTCTTTTCATAGCCTTCCCGCATATGAGAACAAGATGACGCCTCTGTCTGTCCCAAGCCAGGCCCAGGGAC,0.334

# Study 4 — method: competition protein-binding microarray; molecule type: double-stranded DNA, one strand shown; medium: in vitro; concentration: 2 µM; together with: Cbf1 competitor, 0.05 µM; direction: higher = stronger binding; all sequences stand within: … GTCTTGATTCGCTTGACGCTGCTG
# Target: Phosphate system positive regulatory protein PHO4, full length, GST-tagged (PHO4, Saccharomyces cerevisiae, UniProt P07270, residues 1-312)
# Notes: whole 60-bp probe, lowest competitor level
# Residues (chain): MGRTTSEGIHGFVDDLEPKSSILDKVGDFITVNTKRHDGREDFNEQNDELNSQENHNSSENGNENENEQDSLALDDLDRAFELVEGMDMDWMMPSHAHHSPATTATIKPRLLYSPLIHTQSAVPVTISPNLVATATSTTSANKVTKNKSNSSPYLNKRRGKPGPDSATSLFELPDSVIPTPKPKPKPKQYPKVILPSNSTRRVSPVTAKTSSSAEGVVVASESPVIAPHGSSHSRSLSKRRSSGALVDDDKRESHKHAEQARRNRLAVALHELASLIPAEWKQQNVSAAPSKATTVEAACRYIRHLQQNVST
Oligonucleotide,fluorescence intensity
TGACTCAAAATATTTGACATACTGTTCTATGGCTTT,2960 a.u.
GTAGTCCTCTTTCGTCACGTCAAAATTTCAGATCCT,2990 a.u.
ATTCGAAATGATTCGGGCGTGCAAATGAAGCTCTTG,5980 a.u.
AAAGTTGGGTGTCTGCGTGTGTGTATGTTTCCAATT,9030 a.u.
AAGCATATGCTGTTTATCGTGCTAACAAGGCGGTAT,7060 a.u.
AAATTACTAAGTTGCCCGGTGGGTGACGCCGTATGA,3860 a.u.
CAATGAAGTTAATATCACATGTTATGATCCACCAAG,9810 a.u.
GTATTCTAGCAGCCGCTCGTGCAAAGTGTTCAATGC,9130 a.u.
CTGACGGCAACGCGACGCGTGACGGGTAAGATAAGA,7700 a.u.
GATATCCTTTCCCATCACGTGAAGGGTGTTTCGCTG,12300 a.u.
CGTCCTAGTGATTGGCCGGTGGGTGCCATGAGGAAG,5940 a.u.
CTTTCCCGATCTTGTCGCGTGGGTGTAGCACATTTG,9750 a.u.
AAATTACTAAGTTGGACTGTGGGTGACGCCGTATGA,4210 a.u.
GAGCCCGTAATCCAACACGTTTGATATTTTGTGCGA,9880 a.u.
TACTTTCTACGCGGCCACGTGCAATTAAAAGATGGC,18500 a.u.
AAATTACTAAGTTGGCCGGTGGGTGACGCCGTATGA,3550 a.u.
AGATCTTCGAAGAACCACATGTTGGATGACCGGGCA,9430 a.u.
GTCTTGTCTCATTGGACGGTGGGTGTCCCCACTTCA,5220 a.u.
TGCAGAAGGGGACGATAATAAGACCAAATATTCTTG,2980 a.u.

# A few entries again (study 2):
Modification,mean fluorescence intensity [a.u.]
2'F-ANA at 1 6 7 8 12 15,454
2'F-ANA at 2 3 4 6 7 8 12 14,358
2'F-ANA at 1 6 8 11 12 14,68.3
2'F-ANA at 5 8 10 11 15,46.8
2'F-ANA at 1 3 4 7 8 11 13 14 15,91.4
2'F-ANA at 1 4 5 6 7 9 11 12 15,80.7
2'F-ANA at 3 7 8 13,1140
2'F-ANA at 5 8 12 13,121
2'F-ANA at 3 4 7 8 9 12 14 15,392
